Published values gathered from unrelated publications.
Numbered parts are unrelated; each lists some results of a single study. Several values in a cell are separate wells, animals, samples, runs or records.
UniProt P36896, sequence (whole entry, looked up): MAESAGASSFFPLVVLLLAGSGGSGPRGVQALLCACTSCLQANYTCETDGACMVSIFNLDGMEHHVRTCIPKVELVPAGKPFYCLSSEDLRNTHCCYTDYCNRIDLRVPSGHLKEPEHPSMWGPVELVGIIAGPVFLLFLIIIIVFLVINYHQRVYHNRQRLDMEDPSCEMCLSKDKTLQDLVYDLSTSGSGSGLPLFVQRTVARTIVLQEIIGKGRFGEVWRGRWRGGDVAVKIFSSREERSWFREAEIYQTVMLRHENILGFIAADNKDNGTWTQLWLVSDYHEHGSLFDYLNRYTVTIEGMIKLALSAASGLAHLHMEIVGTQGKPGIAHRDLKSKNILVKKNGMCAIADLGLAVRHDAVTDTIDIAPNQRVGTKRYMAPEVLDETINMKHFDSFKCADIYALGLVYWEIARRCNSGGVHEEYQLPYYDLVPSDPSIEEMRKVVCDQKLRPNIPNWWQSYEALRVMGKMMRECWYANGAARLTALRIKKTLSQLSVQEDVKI
UniProt P29322, sequence (whole entry, looked up): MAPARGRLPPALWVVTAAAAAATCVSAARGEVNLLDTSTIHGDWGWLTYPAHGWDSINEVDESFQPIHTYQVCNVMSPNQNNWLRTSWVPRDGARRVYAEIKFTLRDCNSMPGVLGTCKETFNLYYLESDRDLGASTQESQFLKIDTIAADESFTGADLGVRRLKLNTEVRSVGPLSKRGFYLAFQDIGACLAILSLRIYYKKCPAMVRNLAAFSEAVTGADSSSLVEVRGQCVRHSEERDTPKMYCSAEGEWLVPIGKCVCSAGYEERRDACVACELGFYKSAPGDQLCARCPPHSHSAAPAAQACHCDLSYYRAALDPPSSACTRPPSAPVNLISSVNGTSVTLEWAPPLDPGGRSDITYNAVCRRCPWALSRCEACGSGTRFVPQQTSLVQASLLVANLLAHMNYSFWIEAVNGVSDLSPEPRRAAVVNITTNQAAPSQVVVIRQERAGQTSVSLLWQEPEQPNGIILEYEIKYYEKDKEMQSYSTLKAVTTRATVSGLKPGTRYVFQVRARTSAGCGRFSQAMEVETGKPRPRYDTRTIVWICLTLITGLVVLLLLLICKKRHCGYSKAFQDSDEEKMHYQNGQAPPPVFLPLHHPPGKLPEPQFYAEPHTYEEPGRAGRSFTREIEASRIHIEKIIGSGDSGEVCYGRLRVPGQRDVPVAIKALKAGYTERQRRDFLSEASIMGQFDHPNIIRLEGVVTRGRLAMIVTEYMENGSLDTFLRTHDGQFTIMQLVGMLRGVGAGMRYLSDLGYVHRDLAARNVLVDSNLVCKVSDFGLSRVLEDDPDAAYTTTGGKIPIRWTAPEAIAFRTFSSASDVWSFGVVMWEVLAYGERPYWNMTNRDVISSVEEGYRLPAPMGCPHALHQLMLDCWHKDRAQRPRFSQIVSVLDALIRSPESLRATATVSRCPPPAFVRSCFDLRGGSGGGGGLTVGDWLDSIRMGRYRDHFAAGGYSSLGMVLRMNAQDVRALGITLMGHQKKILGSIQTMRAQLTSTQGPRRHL
UniProt P51956, sequence (whole entry, looked up): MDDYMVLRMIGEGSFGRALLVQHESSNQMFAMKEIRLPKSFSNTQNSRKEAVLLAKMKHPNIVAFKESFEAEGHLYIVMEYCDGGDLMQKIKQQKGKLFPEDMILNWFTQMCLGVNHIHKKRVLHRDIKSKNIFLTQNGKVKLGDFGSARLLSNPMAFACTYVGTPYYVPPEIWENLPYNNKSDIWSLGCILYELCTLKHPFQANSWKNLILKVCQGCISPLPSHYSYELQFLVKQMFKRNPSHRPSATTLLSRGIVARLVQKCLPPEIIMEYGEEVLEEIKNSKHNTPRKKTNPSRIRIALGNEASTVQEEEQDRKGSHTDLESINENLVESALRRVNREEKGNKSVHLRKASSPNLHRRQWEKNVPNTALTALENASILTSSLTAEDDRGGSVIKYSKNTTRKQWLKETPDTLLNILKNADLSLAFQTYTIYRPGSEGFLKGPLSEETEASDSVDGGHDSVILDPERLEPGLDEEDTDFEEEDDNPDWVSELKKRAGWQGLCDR
UniProt Q02750, sequence (whole entry, looked up): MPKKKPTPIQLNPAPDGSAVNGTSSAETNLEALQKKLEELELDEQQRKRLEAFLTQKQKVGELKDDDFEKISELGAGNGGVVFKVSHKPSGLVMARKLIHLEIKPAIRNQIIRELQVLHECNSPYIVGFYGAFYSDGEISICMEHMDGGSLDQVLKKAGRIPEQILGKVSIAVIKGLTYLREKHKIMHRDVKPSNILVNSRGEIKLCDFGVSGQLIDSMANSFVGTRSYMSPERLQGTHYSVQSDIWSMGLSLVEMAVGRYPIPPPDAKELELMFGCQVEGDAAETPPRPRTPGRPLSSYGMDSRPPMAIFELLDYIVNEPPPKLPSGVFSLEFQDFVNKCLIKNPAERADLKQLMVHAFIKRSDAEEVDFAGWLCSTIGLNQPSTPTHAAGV

Study 1 — species: human; medium: microsomes or S9; tested at: 2 µM; time: 0.5 h; quantity: remaining compound
Cc1cc(Cl)ccc1NS(=O)(=O)c1cc(-c2ccc(=O)n(-c3c(C)noc3C)n2)ccc1C: 2.9%
CCc1noc(CC)c1CC(=O)NCC1(CC)CCCCC1: 0.0613%
CC[C@H](C)[C@@H](CO)NC(=O)c1cc(C)nc(C)c1: 94.2%
Cc1nc(NC(=O)CCCCF)c(N)cc1Br: > 99.9%
O=C(c1cccnc1Cl)N1CCCCC1c1ccccc1 (stereo not drawn): 63.8%
CC(C)(C)c1cc(NC(=O)CSC2=NN/C(=C3\C=c4ccccc4=N3)N2c2ccccc2)on1: 46.7%
CCN(CC)S(=O)(=O)c1ccc(C)c(N2C(=O)CC(C#N)=C2N)c1: 25.8%
COc1cc2ccccc2cc1C(=O)N(CCN(C)C)c1nc2c(F)cccc2s1: 56.3%
CCCC(NNC(=O)c1cnccn1)C(=O)OC (stereo not drawn): 0.836%
Cn1nc(CNC(=O)Cn2nc(C(F)(F)F)c3c2CCC3)c(Cl)c1Cl: 3.08%
CCN(c1ccc2c(c1)OCO2)c1cc(Cl)nc(Cl)n1: 50.1%
Brc1cnn(CC2CCN(Cc3cncs3)CC2)c1: 99.9%
CC(=O)Nc1nc(-c2cnc3ccc(Cl)cn23)c(C)s1: 1.1%
Oc1cc(O)c2c(c1)O[C@H](c1ccc(O)c(O)c1)[C@H](O)[C@H]2c1c(O)cc(O)c2c1O[C@H](c1ccc(O)c(O)c1)[C@H](O)C2: 81.1%
Nc1nnc2sc3cc(Br)ccc3n12: 0%
COc1ccccc1Cn1ccc2nc3ccn(-c4ncn[nH]4)c(=O)c3cc2c1=O: 79.9%
CN(Cc1ccccc1-n1cccn1)C(=O)CN1CC2(CCCC2)CC1=O: > 100%
Cc1c(C(=O)OC(C)C)sc2ncnc(N3CCCCC3)c12: 0.14%
Cn1cc(C(=O)Nc2ccc(C#N)cc2)c2ccccc2c1=O: > 100%

Study 2 — observed: enzyme activity; mode: inhibitor; tested at: 77 µM; baseline: untreated; quantity: remaining activity
Target: DNA polymerase theta, ATPase domain (POLQ, Homo sapiens, UniProt O75417)
UniProt O75417, sequence (whole entry, unmodified, looked up): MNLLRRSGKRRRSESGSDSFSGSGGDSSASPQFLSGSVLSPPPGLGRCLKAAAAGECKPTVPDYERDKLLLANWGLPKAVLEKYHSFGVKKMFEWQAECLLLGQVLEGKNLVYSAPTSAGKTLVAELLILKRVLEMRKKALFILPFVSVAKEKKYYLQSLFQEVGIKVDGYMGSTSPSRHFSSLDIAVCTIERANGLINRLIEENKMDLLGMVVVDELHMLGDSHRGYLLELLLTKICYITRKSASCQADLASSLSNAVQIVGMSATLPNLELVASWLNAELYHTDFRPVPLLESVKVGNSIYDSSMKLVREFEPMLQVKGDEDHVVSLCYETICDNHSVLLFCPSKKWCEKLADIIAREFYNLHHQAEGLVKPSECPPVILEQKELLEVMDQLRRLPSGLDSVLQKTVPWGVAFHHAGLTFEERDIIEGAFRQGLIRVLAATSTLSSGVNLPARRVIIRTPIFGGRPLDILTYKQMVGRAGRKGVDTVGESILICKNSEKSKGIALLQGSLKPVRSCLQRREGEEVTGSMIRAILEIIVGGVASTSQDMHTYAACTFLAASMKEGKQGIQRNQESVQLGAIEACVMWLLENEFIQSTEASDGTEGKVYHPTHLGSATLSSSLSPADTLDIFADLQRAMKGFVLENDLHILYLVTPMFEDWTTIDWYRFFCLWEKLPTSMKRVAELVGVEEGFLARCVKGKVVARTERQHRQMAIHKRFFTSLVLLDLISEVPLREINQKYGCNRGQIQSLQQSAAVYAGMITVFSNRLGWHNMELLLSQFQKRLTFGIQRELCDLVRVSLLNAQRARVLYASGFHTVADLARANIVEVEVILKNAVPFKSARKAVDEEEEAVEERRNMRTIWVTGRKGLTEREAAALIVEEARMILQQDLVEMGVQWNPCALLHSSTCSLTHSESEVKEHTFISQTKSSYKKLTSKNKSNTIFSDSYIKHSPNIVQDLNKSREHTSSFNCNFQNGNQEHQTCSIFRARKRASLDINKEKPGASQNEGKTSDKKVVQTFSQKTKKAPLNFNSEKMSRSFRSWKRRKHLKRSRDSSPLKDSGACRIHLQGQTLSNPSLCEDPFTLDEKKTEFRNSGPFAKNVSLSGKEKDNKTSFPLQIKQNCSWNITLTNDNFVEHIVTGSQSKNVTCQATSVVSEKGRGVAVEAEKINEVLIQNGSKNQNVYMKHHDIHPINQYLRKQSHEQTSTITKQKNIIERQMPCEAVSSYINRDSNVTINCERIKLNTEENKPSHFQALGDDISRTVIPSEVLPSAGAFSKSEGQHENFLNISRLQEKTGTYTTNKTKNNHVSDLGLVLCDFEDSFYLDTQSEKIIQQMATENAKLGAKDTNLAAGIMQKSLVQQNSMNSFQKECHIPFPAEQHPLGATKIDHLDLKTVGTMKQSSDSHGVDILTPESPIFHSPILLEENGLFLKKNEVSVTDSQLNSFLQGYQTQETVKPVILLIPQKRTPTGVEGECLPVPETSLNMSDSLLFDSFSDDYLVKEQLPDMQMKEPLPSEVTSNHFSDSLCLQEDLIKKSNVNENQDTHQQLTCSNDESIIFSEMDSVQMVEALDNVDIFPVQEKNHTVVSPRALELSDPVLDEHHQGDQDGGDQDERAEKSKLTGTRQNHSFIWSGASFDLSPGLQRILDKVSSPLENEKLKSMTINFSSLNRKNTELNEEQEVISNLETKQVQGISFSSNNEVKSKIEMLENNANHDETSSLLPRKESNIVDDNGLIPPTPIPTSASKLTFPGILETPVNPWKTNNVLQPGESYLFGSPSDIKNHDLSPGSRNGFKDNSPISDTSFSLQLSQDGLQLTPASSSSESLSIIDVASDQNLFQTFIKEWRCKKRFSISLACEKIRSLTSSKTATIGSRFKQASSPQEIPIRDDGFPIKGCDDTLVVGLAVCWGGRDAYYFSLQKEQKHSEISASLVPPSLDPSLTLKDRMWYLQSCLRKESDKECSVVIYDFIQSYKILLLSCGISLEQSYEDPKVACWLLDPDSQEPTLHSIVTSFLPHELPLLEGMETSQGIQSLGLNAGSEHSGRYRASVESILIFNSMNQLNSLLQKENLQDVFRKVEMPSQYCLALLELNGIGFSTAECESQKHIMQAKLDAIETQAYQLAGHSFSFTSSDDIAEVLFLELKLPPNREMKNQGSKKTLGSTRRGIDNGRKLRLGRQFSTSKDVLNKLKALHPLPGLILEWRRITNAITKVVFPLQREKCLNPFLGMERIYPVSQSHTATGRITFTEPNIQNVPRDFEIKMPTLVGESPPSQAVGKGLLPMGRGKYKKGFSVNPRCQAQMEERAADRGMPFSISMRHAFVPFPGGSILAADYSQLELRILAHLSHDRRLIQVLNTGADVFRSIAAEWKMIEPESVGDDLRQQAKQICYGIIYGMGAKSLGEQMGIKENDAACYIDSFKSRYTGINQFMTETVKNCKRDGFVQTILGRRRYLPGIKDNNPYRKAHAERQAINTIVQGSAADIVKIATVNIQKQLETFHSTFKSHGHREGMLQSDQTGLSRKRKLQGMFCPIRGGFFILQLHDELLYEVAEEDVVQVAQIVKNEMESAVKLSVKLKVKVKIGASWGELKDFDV
COc1cc(OC)cc(-c2cc3cnc(N)nc3nc2NC(=O)NC(C)(C)C)c1: 101%
Cc1cc(-c2ccc(CC(=O)Nc3ccc(-c4cccnc4)cc3)cc2)ccn1: 107%
CC(=O)N(CC(C)C(=O)O)c1c(I)cc(I)c(N)c1I (stereo not drawn): 304%
NC(=O)c1cnccn1: 94% and 102%
CC(=O)OC(C)C[N+](C)(C)C (stereo not drawn): 101%
O=C(c1cn(Cc2cncn2Cc2ccc(Br)cc2)cc1-c1cccc2ccccc12)N1CCOCC1: 102%
NC(=O)N/N=C/c1ccc([N+](=O)[O-])o1: 80.9% and 106%
C[C@@]1(c2cc(-c3cncnc3)c(F)cc2F)CCSC(N)=N1: 99.6%
Nc1ccccc1S(N)(=O)=O: 102%
O=C(Nc1cccc(Cl)c1)c1ccccn1: 75.6%
COC(=O)N1CCN(Cc2cccc(NC(=O)Nc3ccc(C)nc3)c2F)CC1: 98.6%
Nc1nccc(Oc2ccc(NC(=O)c3c[nH]cc(-c4ccc(F)cc4)c3=O)cc2F)c1Cl: 97.9%
COC(=O)CCc1ccc(OCC(O)CNC(C)C)cc1 (stereo not drawn): 103%
CCCC(=O)Oc1ccc2[nH]c(C(=O)c3cc4ccccc4[nH]3)cc2c1: 117%
CCOc1ccn(-c2ccc(F)cc2)c(=O)c1C(=O)Nc1ccc(Oc2ccnc(N)c2Cl)c(F)c1: 99.5%

Study 3 — observed: enzyme activity; mode: inhibitor; tested at: 0.5 µM; baseline: control; quantity: remaining activity
Target: Serine/threonine-protein kinase D2 (PRKD2, Homo sapiens, UniProt Q9BZL6)
Residues (Q9BZL6 1-878): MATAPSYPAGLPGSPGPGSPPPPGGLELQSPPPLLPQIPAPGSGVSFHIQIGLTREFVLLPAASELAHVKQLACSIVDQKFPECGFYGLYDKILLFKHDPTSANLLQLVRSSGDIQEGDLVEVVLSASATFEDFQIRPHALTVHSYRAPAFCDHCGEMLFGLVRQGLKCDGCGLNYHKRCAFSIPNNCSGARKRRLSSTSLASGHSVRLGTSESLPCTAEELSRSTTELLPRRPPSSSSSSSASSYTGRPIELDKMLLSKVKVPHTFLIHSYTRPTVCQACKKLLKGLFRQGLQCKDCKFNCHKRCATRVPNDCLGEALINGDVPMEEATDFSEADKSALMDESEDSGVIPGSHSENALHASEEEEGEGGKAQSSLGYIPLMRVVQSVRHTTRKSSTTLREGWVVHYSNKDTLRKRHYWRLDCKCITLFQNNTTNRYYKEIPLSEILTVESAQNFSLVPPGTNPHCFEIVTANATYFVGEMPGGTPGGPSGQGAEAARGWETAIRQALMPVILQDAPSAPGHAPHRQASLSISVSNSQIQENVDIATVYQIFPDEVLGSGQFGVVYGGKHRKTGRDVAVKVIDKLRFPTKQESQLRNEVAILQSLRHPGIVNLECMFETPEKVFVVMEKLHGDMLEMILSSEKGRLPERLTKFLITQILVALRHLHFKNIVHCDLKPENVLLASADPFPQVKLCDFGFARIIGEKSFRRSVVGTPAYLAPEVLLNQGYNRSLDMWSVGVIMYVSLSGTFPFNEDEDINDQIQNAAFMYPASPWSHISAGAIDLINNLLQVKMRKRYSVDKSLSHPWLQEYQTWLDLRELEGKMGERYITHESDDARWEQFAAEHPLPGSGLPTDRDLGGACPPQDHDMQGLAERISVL
CN(C)CCCn1cc(C2=C(c3c[nH]c4ccccc34)C(=O)NC2=O)c2ccccc21: 78.8%
COc1cc2ncnc(Nc3ccc(OCc4ccccc4)cc3)c2cc1OC: 101%
Cc1nc(Nc2ncc(C(=O)Nc3c(C)cccc3Cl)s2)cc(N2CCN(CCO)CC2)n1: 93%
COc1ccc(-c2cnc3c(-c4ccsc4)cnn3c2)cc1: 97.7%
CCOc1cc2ncnc(Nc3cccc(Br)c3)c2cc1OCC: 86.9%
Cn1cc(/C=C2\C(=O)Nc3ccc(S(N)(=O)=O)cc32)c2ccccc21: 87.2%
COc1cc2ncc(-c3ccccc3)nc2cc1OC: 93.8%
CCN1/C(=C/C(C)=O)Sc2ccc(OC)cc21: 69.4%
Cc1ccc(NC(=O)c2ccc(CN3CCN(C)CC3)cc2)cc1Nc1nccc(-c2cccnc2)n1: 95.1%
Nc1[nH]nc2nnc(-c3c(-c4ccccc4)nn4ccccc34)cc12: 54.1%
CC(C)[C@H](CO)Nc1nc(Nc2cccc(Cl)c2)c2ncn(C(C)C)c2n1: 99.7%
COc1cc2ncnc(N3CCN(C(=O)Nc4ccc(Oc5ccccc5)cc4)CC3)c2cc1OC: 91.9%
O=C(Nc1ccc(Cl)cc1)c1ccccc1NCc1ccncc1: 98%
Cn1cnc2cc3c(Nc4cccc(Br)c4)ncnc3cc21: 82.6%
CS(=O)(=O)CCNCc1ccc(-c2ccc3ncnc(Nc4ccc(OCc5cccc(F)c5)c(Cl)c4)c3c2)o1: 86.4%
O=c1cc(N2CCOCC2)oc2c1ccc1ccccc12: 101%
CC(C)c1nn(-c2c(Cl)cccc2Cl)c2nc(Cc3ccc(OCCO)cc3)[nH]c(=O)c12: 88.4%
COc1ccc(Cl)cc1NC(=O)Nc1cc(C)nc2ccccc12: 99.8%
CC(=O)O/N=C1/C(c2c(O)[nH]c3cc(Br)ccc23)=Nc2ccccc21: 87.8%
CCC(=O)Nc1ccc2ncnc(Nc3cccc(Br)c3)c2c1: 85.1%
O=C1NC(=O)/C(=C/c2ccc3nccnc3c2)S1: 104%

Study 4 — observed: cell-free assay; method: competition with immobilised ligand; tested at: 1 µM; quantity: remaining binding
Compound: O=C(Nc1cccnn1)N1CCC(=Cc2cccc(Oc3ccc(C(F)(F)F)cn3)c2)CC1
Ribosomal protein S6 kinase alpha-6, C-terminal kinase domain (RPS6KA6, Homo sapiens, UniProt Q9UK32): 100%
MAP2K1 (Homo sapiens, UniProt Q02750): 100%
BMPR1B (Homo sapiens, UniProt O00238): 88%
ACVR1B (Homo sapiens, UniProt P36896): 88%
NEK3 (Homo sapiens, UniProt P51956): 100%
EGFR (Homo sapiens, UniProt P00533, del747-750/T751S): 83%
STK16 (Homo sapiens, UniProt O75716): 90%
SRPK1 (Homo sapiens, UniProt Q96SB4): 97%
MELK (Homo sapiens, UniProt Q14680): 100%
Tyrosine-protein kinase ABL1, non-phosphorylated (ABL1, Homo sapiens, UniProt P00519, F317L): 100%
MKNK2 (Homo sapiens, UniProt Q9HBH9): 100%
WEE1 (Homo sapiens, UniProt P30291): 97%
DYRK1B (Homo sapiens, UniProt Q9Y463): 100%
EPHA8 (Homo sapiens, UniProt P29322): 100%
MAP3K6 (Homo sapiens, UniProt O95382): 100%
MAP3K1 (Homo sapiens, UniProt Q13233): 100%
MET (Homo sapiens, UniProt P08581, M1250T): 100%
ERN1 (Homo sapiens, UniProt O75460): 92%
STK32C (Homo sapiens, UniProt Q86UX6): 100%
DMPK (Homo sapiens, UniProt Q09013): 100%
